Published values of several laboratories.
Protocols differ between the studies behind these lines. “And” joins repeats or separate records; there may be more than shown.
Target: Amine oxidase [flavin-containing] B (MAOB, Homo sapiens, UniProt P27338)
Sequence of UniProt P27338 (whole entry, looked up): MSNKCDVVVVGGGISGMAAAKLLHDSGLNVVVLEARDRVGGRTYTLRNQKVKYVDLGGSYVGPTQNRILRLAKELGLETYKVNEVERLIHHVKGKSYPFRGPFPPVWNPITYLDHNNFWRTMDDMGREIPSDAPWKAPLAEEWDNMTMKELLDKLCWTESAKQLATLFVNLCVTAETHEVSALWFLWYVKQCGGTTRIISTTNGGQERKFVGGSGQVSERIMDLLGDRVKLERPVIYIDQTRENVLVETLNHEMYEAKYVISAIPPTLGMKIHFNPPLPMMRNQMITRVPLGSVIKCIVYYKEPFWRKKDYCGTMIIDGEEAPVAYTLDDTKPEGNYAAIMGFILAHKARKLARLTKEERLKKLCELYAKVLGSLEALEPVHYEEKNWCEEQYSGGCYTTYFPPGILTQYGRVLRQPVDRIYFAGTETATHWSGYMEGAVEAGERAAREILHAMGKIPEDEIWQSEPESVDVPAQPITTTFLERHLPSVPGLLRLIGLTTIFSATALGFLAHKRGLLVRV
Action: inhibitor

`Cc1ccc2c(c1)/C(=N/N=C/c1cccc(OCc3ccccc3)c1)C(=O)N2` has an IC50 of 15.2 µM (enzyme activity).
For `COc1cc(C)cc(C2(O)NC(=O)c3c(OCc4ccccc4)cc(OCc4ccccc4)cc32)c1OC` (racemic), the IC50 was greater than 100 µM (20 min, pH 7.4, 37 °C, added: kynuramine 30 µM).
With `COc1cc(OC2OC(CO)C(O)C(O)C2O)c2c(OC)c(C(C)=O)c(OC3OCC(O)(CO)C3O)cc2c1` (centres unmarked) the IC50 was greater than 400 µM (enzyme activity).
The IC50 of `CCC/C=C1\OC(=O)C2=C1CC[C@H](O)[C@H]2O` is reported as 302 µM (enzyme activity, fluorescence).
For `COc1cc(C)cc(C2NC(=O)c3c(O)cc(O)cc32)c1OC` (racemic), the IC50 was greater than 100 µM (20 min, pH 7.4, 37 °C, added: kynuramine 30 µM).
For `COc1c(OC2OC(CO)C(O)C(O)C2O)cc2c(c1O)C(=O)c1c(cc(C)c(O)c1OC)C2=O` (centres unmarked), the IC50 was 181 µM (enzyme activity).
For `O=C1Nc2ccc(Br)cc2/C1=N/N=C/c1cccc(OCc2ccccc2)c1`, the IC50 was 8.13 µM (enzyme activity).
For `COc1cc(OC)c2c(c1)C(c1cc(C)cc(OC)c1OC)NC2=O` (racemic), the IC50 was greater than 100 µM (20 min, pH 7.4, 37 °C, added: kynuramine 30 µM).
`COc1c(O)c(C)cc2c1C(=O)c1c(O)cc(O)cc1C2=O` has an IC50 of greater than 400 µM (enzyme activity).
`Cc1ccc(C(=O)/C=C/c2ccc3c(c2)OCCO3)s1` gave an IC50 of 0.27 µM (enzyme activity, fluorescence).
The IC50 of `COc1cc(/C=C/C(=O)O)ccc1O` is reported as 26.9 µM (enzyme activity, fluorescence).
The IC50 of `COc1ccc2c(c1)/C(=N/N=C/c1cccc(OCc3ccccc3)c1)C(=O)N2` is reported as 12.1 µM (enzyme activity).
For `COc1cc(OC)c2c(c1)C(O)(c1cc(C)cc(OC)c1OC)NC2=O` (racemic), the IC50 was greater than 100 µM (20 min, pH 7.4, 37 °C, added: kynuramine 30 µM).
`COc1cc2c(c(OC)c1OC)C(=O)c1c(cc(C)c(OC3OC(CO)C(O)C(O)C3O)c1OC)C2=O` (centres unmarked) has an IC50 of greater than 400 µM (enzyme activity).
For `O=C1Nc2ccc(Cl)cc2/C1=N/N=C/c1ccc(OCc2cccc(F)c2)cc1`, the IC50 was 20.8 µM (enzyme activity).
`COc1cc(/C=C/COC(=O)/C=C/c2ccc(O)c(OC)c2)ccc1O` gave an IC50 of 2.03 µM (enzyme activity, fluorescence).
`COc1cc(OC2OC(COC3OC(CO)C(O)C(OC4OC(CO)C(O)C(O)C4O)C3O)C(O)C(O)C2O)c2c(O)c3c(=O)cc(C)oc3cc2c1` (centres unmarked) gave an IC50 of greater than 400 µM (enzyme activity).
The IC50 of `COc1ccc2c(c1)/C(=N/N=C/c1ccc(OCc3ccccc3)cc1)C(=O)N2` is reported as 17.6 µM (enzyme activity).
`COc1cc(O)c2c(c1)C(c1cc(C)cc(OC)c1OC)NC2=O` (racemic) has an IC50 of < 20 µM and 15.8 µM (enzyme activity, fluorescence; pH 7.4).
`CCCCC1OC(=O)c2ccccc21` (centres unmarked) has an IC50 of 113 µM (enzyme activity, fluorescence).
With `Cc1ccc2c(c1)/C(=N/N=C/c1ccc(OCc3cccc(F)c3)cc1)C(=O)N2` the IC50 was 4.1 µM (enzyme activity).
With `COc1cc(C)cc(C2NC(=O)c3c(OC)cc(O)cc32)c1O` (racemic) the IC50 was 66.8 µM (enzyme activity, fluorescence; pH 7.4).
With `O=C(/C=C/c1ccc2c(c1)OCCO2)c1ccc(Cl)s1` the IC50 was 0.11 µM (enzyme activity, fluorescence).
`O=C1Nc2ccc(F)cc2/C1=N/N=C/c1ccc(OCc2cccc(F)c2)cc1` has an IC50 of 1.19 µM (enzyme activity).
The IC50 of `COc1cc(/C=C/C(=O)O)cc(OC)c1O` is reported as 32.8 µM (enzyme activity, fluorescence).
`O=C(/C=C/c1ccc2c(c1)OCO2)c1ccc(Cl)s1` has an IC50 of 0.43 µM (enzyme activity, fluorescence).

Some of these lines once more:
The IC50 of `COc1ccc2c(c1)/C(=N/N=C/c1ccc(OCc3ccccc3)cc1)C(=O)N2` is reported as 17.6 µM (enzyme activity).
`COc1cc(O)c2c(c1)C(c1cc(C)cc(OC)c1OC)NC2=O` (racemic) has an IC50 of < 20 µM and 15.8 µM (enzyme activity, fluorescence; pH 7.4).
`CCCCC1OC(=O)c2ccccc21` (centres unmarked) has an IC50 of 113 µM (enzyme activity, fluorescence).
With `Cc1ccc2c(c1)/C(=N/N=C/c1ccc(OCc3cccc(F)c3)cc1)C(=O)N2` the IC50 was 4.1 µM (enzyme activity).
